Assay results collected from several papers.
Protocols differ between the studies behind these lines. ± gives the spread as reported. In brackets after ≈: the same amount, converted by molar mass.

By UniProt entry, the sequences of proteins in these tests, tags left out. Residues count along the entry.
UniProt P45983, 1-384 isoform 3: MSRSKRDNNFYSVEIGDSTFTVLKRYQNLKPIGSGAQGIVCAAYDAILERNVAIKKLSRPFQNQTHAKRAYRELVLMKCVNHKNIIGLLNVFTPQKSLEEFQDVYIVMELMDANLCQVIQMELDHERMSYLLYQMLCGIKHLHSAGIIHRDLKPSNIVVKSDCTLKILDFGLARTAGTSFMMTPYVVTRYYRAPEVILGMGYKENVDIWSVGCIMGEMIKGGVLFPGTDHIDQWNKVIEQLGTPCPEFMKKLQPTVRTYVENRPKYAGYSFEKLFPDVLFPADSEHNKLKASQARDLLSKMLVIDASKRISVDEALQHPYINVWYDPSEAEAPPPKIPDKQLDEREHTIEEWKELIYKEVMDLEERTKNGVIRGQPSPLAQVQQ

With `COC(=O)[C@@H]1C(c2nc3ccccc3s2)=Cc2cc3c(cc2[C@H]1c1cc(OC)c(OC)c(OC)c1)OCO3` the CC50 was 47.5 ± 0.3 µM (HepG2; Alamar Blue; 48 h).
The solubility of `Cc1n[nH]c(C)c1CCOC(=O)c1cccc2c1oc(=O)n2C` is reported as 124 µM (≈ 39.1 µg/mL) (FaSSIF).
`Cc1cc(SCc2sc(-c3cccc(C(=O)NCCCN(C)C)c3)nc2C)ccc1OCC(=O)O`: CC50 “not toxic” (HEK293T; 18 h).
`CC(C)n1nnc(-c2cc(O)cc(Nc3ncnn4ccc(CN5CCC(N)CC5)c34)c2)n1`: “brain to plasma ratio” 0.03 (mouse; subcutaneous, 10 mg/kg, 90 min).
`COc1cc([C@@H]2c3cc4c(cc3C=C(C=O)[C@H]2C(=O)OCCCn2cnc3c(Cl)ncnc32)OCO4)cc(OC)c1OC` gave a CC50 of 73.5 ± 11.6 µM (HepG2; Alamar Blue; 48 h).
The Cmax of `COc1ccc(CC(=O)OCc2ccc(-n3cccn3)cc2)cc1F` is reported as 4440 ng/mL (BALB/c mouse, plasma; intravenous, 2 mg/kg).
`Cc1cc(SCc2sc(-c3ccc(F)nc3)nc2C)ccc1OCC(=O)O`: CC50 “not toxic” (HEK293T; 18 h).
For `CCCSc1nc(N[C@@H]2C[C@H]2c2ccc(F)c(F)c2)c2nnn([C@@H]3C[C@H](O)[C@@H](O)[C@H]3O)c2n1`, the AUC was 6.9 µM·h (rat, male, plasma; oral, 20 mg/kg/day ticagrelor, day 1).
With `COC(=O)[C@@H]1C(C=Nc2cncnc2N)=Cc2cc3c(cc2[C@H]1c1cc(OC)c(OC)c(OC)c1)OCO3` the CC50 was over 100 µM (mouse splenocytes uninfected; Alamar Blue; 48 h).
For `COc1ccc(-c2nc(C)c(CSc3ccc(OCC(=O)O)c(C)c3)s2)cc1F`, the CC50 was over 100 µM (HEK293T; 18 h).
The CC50 of `COc1cc([C@@H]2c3cc4c(cc3[C@@H](OC3CCCCC3)[C@H]3COC(=O)[C@H]23)OCO4)cc(OC)c1OC` is reported as over 100 µM (HepG2; Alamar Blue; 48 h).
`Cc1cc(SCc2sc(-c3ccc(F)c(C(F)(F)F)c3)nc2C)ccc1OCC(=O)O` gave a CC50 of over 50 µM (HEK293T; 18 h).
`COc1cc([C@@H]2c3cc4c(cc3C=C(C=O)[C@H]2C(=O)OCCCCCCBr)OCO4)cc(OC)c1OC` gave a CC50 of 46.8 ± 7 µM (mouse splenocytes uninfected; Alamar Blue; 48 h).
The remaining activity of `COC(=O)[C@@]1(C)C=C(C(=O)Nc2cccc(C(=O)NC34CC(Nc5nccc(-c6cccnc6)n5)(C3)C4)c2)C(=O)CC1` is reported as 1.02 (MAPK8 (Homo sapiens, UniProt P45983); kinase activity, inhibitor; 2.788e-05 µM, unit not given, added: 10 mM GSH; baseline: DMSO).
`Cc1cccc(-c2nc(C)c(CSc3ccc(OCC(=O)O)c(C)c3)s2)c1` has a CC50 of over 80 µM (HEK293T; 18 h).
`Nc1ncc(-c2ccc3ncnc(N4CCc5cc(F)c(Cl)cc54)c3c2)cn1` has a Cmax of 5140 ng/mL (CD1 mouse, brain; intravenous, 5 mg/kg).

Some of these lines once more:
`Cc1cc(SCc2sc(-c3cccc(C(=O)NCCCN(C)C)c3)nc2C)ccc1OCC(=O)O`: CC50 “not toxic” (HEK293T; 18 h).
